Results of several laboratories.
Parts stem from different laboratories: compare values within a part only. Changes are numbered by the printed parent chain.

Set 1 — target: CCNF, cyclin fold, Cln2 fusion (human); method: yeast growth competition, sequencing; matrix: yeast; setting: strong parent motif; reference: not given; reading: higher = stronger binding; quantity: normalised enrichment score
Starting sequence: INSM1 docking peptide (human); PKAIRKLHFEDEV; partner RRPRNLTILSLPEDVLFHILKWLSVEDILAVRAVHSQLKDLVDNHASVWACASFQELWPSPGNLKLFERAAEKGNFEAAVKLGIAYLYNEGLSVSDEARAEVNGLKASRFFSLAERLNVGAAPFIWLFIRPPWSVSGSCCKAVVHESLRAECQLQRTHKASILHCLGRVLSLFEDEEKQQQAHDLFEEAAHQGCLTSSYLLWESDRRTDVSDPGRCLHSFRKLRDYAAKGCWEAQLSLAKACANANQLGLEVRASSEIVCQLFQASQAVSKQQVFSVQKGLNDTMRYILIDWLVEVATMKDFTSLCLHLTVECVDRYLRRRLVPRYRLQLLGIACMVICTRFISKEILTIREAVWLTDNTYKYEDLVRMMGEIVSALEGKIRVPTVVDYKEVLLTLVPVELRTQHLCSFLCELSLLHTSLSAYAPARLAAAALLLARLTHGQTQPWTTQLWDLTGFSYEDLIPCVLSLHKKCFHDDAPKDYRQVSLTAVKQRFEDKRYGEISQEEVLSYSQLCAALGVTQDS
Change = K2V; value = 7.03
Change = A3C; value = 7.88
Change = R5H; value = 0.796
Change = E10D; value = 7.12
Change = H8M; value = 7.75
Change = E10M; value = 7.47
Change = R5K; value = 5.31
Change = F9K; value = 0.00772
Change = I4K; value = 8.43
Change = H8F; value = 7.65
Change = R5M; value = 1.25
Change = E10A; value = 7.34
Change = D11C; value = 8.03
Change = K2L; value = 7.29
Change = K2G; value = 7.09
Change = K6R; value = 7.45
Change = A3Y; value = 6.6
Change = I4V; value = 7.54
Change = R5Q; value = 1.67
Change = D11M; value = 7.56
Change = I4M; value = 7.91
Change = I4F; value = 6.76
Change = F9I; value = 2.11
Change = E10K; value = 6.56
Change = D11I; value = 7.74

Set 2 — method: protein binding microarray; molecule type: double-stranded DNA, one strand shown; matrix: in vitro; concentration: not given; reference: not given; reading: higher = stronger binding; quantity: E-score
Target: Histone acetyltransferase KAT6A, winged helix 1, GST fusion (KAT6A, Homo sapiens, UniProt Q92794, residues 1-85)
Setting: 8-mer, flanks averaged, mean of 2 arrays, mostly near background
Construct (chain): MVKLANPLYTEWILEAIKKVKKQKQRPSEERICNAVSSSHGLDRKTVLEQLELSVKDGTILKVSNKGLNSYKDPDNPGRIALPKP
Sequence = ATCGGTAC; value = 0.166
Sequence = ATCTTAAT; value = -0.171
Sequence = ACTTCTCG; value = -0.121
Sequence = AACTGTCG; value = 0.0381
Sequence = CGGGTCCA; value = 0.125
Sequence = CCACTCGA; value = -0.222
Sequence = GCACGGTA; value = 0.214
Sequence = AGTGACTG; value = -0.164
Sequence = CAGGCGTA; value = -0.0063
Sequence = AGGCTCAA; value = -0.2
Sequence = GTCTCGAA; value = -0.213
Sequence = AGATATAG; value = -0.145
Sequence = GAATGCAA; value = -0.146
Sequence = GAACTGCC; value = -0.0513
Sequence = GGCAGCGA; value = 0.25
Sequence = ATATCTCC; value = 0.0724
Sequence = GGTCTAAC; value = -0.046
Sequence = CATAGTTA; value = 0.0955
Sequence = ACAAAGCT; value = -0.0457
Sequence = ATCGATAC; value = -0.0597
Sequence = GGCACACC; value = -0.0649
Sequence = CGACCTAC; value = 0.0406
Sequence = TGATGTAA; value = -0.119
Sequence = AGATGCCG; value = 0.284

Set 3 — method: DHFR PCA, deep sequencing; matrix: yeast; together with: (+)-ABA 0.11 µM; reference: wild-type fitted maximum; reading: higher = stronger binding; quantity: relative binding score
Target: ABI1, truncated, D143A, DHFR fusion (Arabidopsis thaliana)
Setting: methotrexate growth selection, single substitutions
Starting sequence: PYL1, truncated, DHFR fusion (Arabidopsis thaliana); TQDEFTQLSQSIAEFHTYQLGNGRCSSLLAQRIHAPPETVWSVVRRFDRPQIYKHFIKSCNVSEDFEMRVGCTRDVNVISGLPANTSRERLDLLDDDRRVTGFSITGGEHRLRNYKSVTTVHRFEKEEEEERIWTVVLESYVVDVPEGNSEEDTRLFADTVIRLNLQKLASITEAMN
Change = S150Y; value = -7.47%
Change = A175C; value = 20.8%
Change = D75G; value = -3.03%
Change = D48L; value = -2.37%
Change = S150H; value = -6.15%
Change = S150I; value = -4.64%
Change = F157Y; value = 44.2%
Change = K168G; value = -0.935%
Change = D97Y; value = 8.98%
Change = L20A; value = 46.9%
Change = K116H; value = 9.64%
Change = L138F; value = 9.3%
Change = D95R; value = -3.45%
Change = T17F; value = -3.96%
Change = T160C; value = 1.38%
Change = E109G; value = -0.838%
Change = S42Y; value = -3.64%
Change = I57L; value = 1.44%

Mixed results
Substance = PhoQ, residues 284 288 289 292 302 303 AGCYAI; target = PhoP, residues 12 14 15 18 19 QWHVF (Escherichia coli, UniProt P23836); test = Sort-seq, item: YFP reporter; test system = E. coli; setting = PhoQ-PhoP variant library, together with: 10 µM Mg2+; how to read = reference: high Mg2+ state, higher = stronger signaling; quantity = fold induction; value = 0.822

For quick reference, copied from above (set 1):
Change = E10M; value = 7.47
Change = R5K; value = 5.31
Change = F9K; value = 0.00772
Change = I4K; value = 8.43
Change = H8F; value = 7.65
Change = R5M; value = 1.25
Change = E10A; value = 7.34
Change = D11C; value = 8.03
